{"data": "Measurements pooled from the literature", "note": "Compare with care: the assays were run in different laboratories."}
{"Structure (SMILES)": "Fc1ccc([C@@H]2CCNC[C@H]2COc2ccc3c(c2)OCO3)cc1", "host": "human, CYP2D6 poor metabolizers", "route": "oral", "dose": "20 mg", "time": "steady state", "notes": "geometric mean", "Vz/F": "736 L"}
{"Structure (SMILES)": "Cn1cc(-c2cn3nccc3c(-c3cnn([C@]4(CC#N)C[C@@H](C#N)C4)c3)n2)cn1", "host": "healthy human", "medium": "plasma", "dose": "100 mg once daily", "time": "day 10", "notes": "multiple dose, fed, geometric mean", "Vz/F": "644 L"}
{"Structure (SMILES)": "CC1(C)CC[C@]2(NC(=O)C(C)(F)F)CC[C@]3(C)[C@H](C(=O)C=C4[C@@]5(C)C=C(C#N)C(=O)C(C)(C)[C@@H]5CC[C@]43C)[C@@H]2C1", "host": "human", "medium": "plasma", "route": "oral", "dose": "150 mg", "notes": "single dose alone, geometric mean", "Vz/F": "11200 L"}
{"Structure (SMILES)": "C[C@@H](c1ccc2nccn2c1)n1nnc2ncc(-c3cnn(C)c3)nc21", "host": "human", "medium": "plasma", "route": "oral", "time": "cycle 1 day 1, single dose", "notes": "all", "Vz/F": "178 L"}
{"Structure (SMILES)": "C[C@H](Oc1ccc(Br)cc1-c1ccon1)C(=O)O", "host": "healthy male humans", "medium": "plasma", "route": "oral", "dose": "600 mg once daily", "time": "day 10", "Vz/F": "38.1 L"}
{"Structure (SMILES)": "C#C[C@]1(CO)O[C@@H](n2cnc3c(N)nc(F)nc32)C[C@@H]1O", "host": "human", "medium": "plasma", "route": "oral", "dose": "100 mg", "notes": "single dose, geometric mean", "Vz/F": "2480 L"}
{"Structure (SMILES)": "CN(C)C(=O)c1cc2cnc(Nc3ccc(N4CCNCC4)cn3)nc2n1C1CCCC1", "host": "human, severe renal impairment", "medium": "plasma", "route": "oral", "dose": "400 mg", "notes": "geometric mean", "Vz/F": "2970 L"}
{"Structure (SMILES)": "CN1C(=O)[C@@H](NC(=O)c2nnc(Cc3ccccc3)[nH]2)COc2cccnc21", "host": "healthy human, fasted", "medium": "plasma", "route": "oral", "dose": "10 mg single dose", "notes": "geometric mean", "Vz/F": "46.9 L"}
{"note": "A few entries again:"}
{"Structure (SMILES)": "Cn1cc(-c2cn3nccc3c(-c3cnn([C@]4(CC#N)C[C@@H](C#N)C4)c3)n2)cn1", "host": "healthy human", "medium": "plasma", "dose": "100 mg once daily", "time": "day 10", "notes": "multiple dose, fed, geometric mean", "Vz/F": "644 L"}
